Assay results gathered from unrelated publications.
Every numbered part comes from another study and shows a few of its results, in no order.

Series 1
Target: Replicase polyprotein 1ab, main protease (rep, Severe acute respiratory syndrome coronavirus 2, UniProt P0DTD1)
Observed: enzyme activity
Mode: inhibitor
Tested at: 20 µM
Setting: primary screen
SMILES | inhibition [%]
O=C(O)C1=CC(=C(c2ccc(O)c(C(=O)O)c2)c2ccc(O)c(C(=O)O)c2)C=CC1=O | 95
CC[N+](CC)(CC)CCOc1cccc(OCC[N+](CC)(CC)CC)c1OCC[N+](CC)(CC)CC | 35.3
CCO/N=C(/C(=O)N[C@@H]1C(=O)N2C(C(=O)O)=C(Sc3nc(-c4cc[n+](C)cc4)cs3)CS[C@H]12)c1nsc(NP(=O)(O)O)n1 | 26.9
Oc1cc2c(c(Cl)c1O)CCNCC2c1ccccc1 (stereo not shown) | 94.5

Series 2
Target: Sal-like protein 4, full length isoform B (SALL4, Homo sapiens, UniProt Q9UJQ4-2, residues 1-616)
Technique: universal PBM
Molecule type: double-stranded DNA, one strand shown
Matrix: in vitro
Tested at: not given
Setting: 8-mer, flanks averaged, mean of replicates
Direction: higher = stronger binding
Target sequence (chain): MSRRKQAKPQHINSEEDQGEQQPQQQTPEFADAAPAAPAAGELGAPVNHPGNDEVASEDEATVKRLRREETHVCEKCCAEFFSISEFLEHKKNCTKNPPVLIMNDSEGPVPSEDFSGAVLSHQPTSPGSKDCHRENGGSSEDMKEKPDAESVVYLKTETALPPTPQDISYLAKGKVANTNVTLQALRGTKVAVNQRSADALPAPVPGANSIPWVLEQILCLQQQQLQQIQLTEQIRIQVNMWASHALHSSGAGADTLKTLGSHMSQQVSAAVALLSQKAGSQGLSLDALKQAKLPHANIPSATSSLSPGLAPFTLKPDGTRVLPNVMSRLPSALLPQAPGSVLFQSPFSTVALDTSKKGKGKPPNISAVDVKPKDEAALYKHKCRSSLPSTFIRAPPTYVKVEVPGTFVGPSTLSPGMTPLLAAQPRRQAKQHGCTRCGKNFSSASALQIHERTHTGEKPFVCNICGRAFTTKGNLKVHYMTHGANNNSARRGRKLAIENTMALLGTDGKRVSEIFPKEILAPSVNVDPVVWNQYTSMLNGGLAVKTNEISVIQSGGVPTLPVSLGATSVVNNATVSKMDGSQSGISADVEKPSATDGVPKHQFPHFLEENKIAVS
Strand | E-score
AGTGGGAC | -0.0544
AACCTTGT | -0.0958
GTACTGTA | 0.0934
GAACGCGC | -0.224
ATTCAGTG | 0.0843
ATTTATAG | 0.355
CTTTATTA | 0.404
AGGTCTTA | -0.0291

Series 3
Target: Replicase polyprotein 1ab, polymerase (rep, Severe acute respiratory syndrome coronavirus 2, UniProt P0DTD1)
Observed: enzyme activity
Mode: inhibitor
Tested at: 20 µM
Structure (SMILES) | inhibition [%]
N#Cc1ccncn1 | 1.78
CCN1CCC(n2cc(CNc3cc(Cl)c4ncc(C#N)c(Nc5ccc(F)c(Cl)c5)c4c3)nn2)CC1 | 8.54
COc1cccc(-n2nc(C(=O)O)cc2-c2ccc(C3CCCCC3)c(Cl)c2)c1 | -0.04
CC(C)(O)CC(=O)O | -4.9
CC(C)[C@H](CO)Nc1nc(Nc2cc(N)cc(Cl)c2)c2ncn(C(C)C)c2n1 | 5.56
Nc1ccc(-c2ccc3ncc4ccc(=O)n(-c5cccc(C(F)(F)F)c5)c4c3c2)cn1 | -3.88
Nc1ncnc2c1ncn2[C@@H]1O[C@H](COP(=O)(O)O)[C@@H](O)[C@H]1O | -12
CCCCC(=O)OCC(=O)[C@]1(O)Cc2c(O)c3c(c(O)c2[C@@H](O[C@H]2C[C@H](NC(=O)C(F)(F)F)[C@H](O)[C@H](C)O2)C1)C(=O)c1c(OC)cccc1C3=O | 5.79
Nc1nc2c(ncn2COCCO)c(=O)[nH]1 | -6.32
CCCCCCCCCCCCCCCCO | -9.3
CN1CCC(=C2c3ccccc3Sc3ccccc32)CC1 | 13.8
CNC[C@H](O)c1cccc(O)c1 | 18.7
O=C(O)c1ccc(N2N=C(Cc3ccccc3)/C(=C\c3ccc(-c4ccccc4F)o3)C2=O)cc1 | 1.19
CC(=O)O[C@]1(C(C)=O)CC[C@H]2[C@@H]3CCC4=CC(=O)CC[C@]4(C)[C@H]3CC[C@@]21C | -12.1
CN1Cc2ccccc2[C@@H]2c3cccc4[nH]cc(c34)C[C@H]21 | 16
Cc1cnc(-c2ccccc2C(C)C)nc1NCc1ccc(-n2ccnn2)cc1 | 0.58
CC[C@@](C)(Nc1ccnc(-c2c[nH]c3ncccc23)n1)C(=O)NCC(F)(F)F | 3.36
O=C(NCCNCC(O)COc1ccc(O)cc1)N1CCOCC1 (stereo not shown) | -5.99
CC(=O)Oc1c(C)cccc1C(=O)O | -1.01
CN1C[C@@H]2CN(c3ccc(-c4ccccc4)nn3)C[C@@H]2C1 | -2.63
CCCN(CCC)C(=O)C1=Cc2ccc(-c3ccc(C(=O)N4CCCC4)cc3)cc2N=C(N)C1 | 4.55
Cl/C(=C\n1cncn1)c1ccc(Cl)cc1Cl | 1.86
NCCCC[C@H](NC(=O)[C@@H]1CCCN1C(=O)[C@@H]1CSSC[C@H](N)C(=O)N[C@@H](Cc2ccc(O)cc2)C(=O)N[C@@H](Cc2ccccc2)C(=O)N[C@@H](CCC(N)=O)C(=O)N[C@@H](CC(N)=O)C(=O)N1)C(=O)NCC(N)=O | 4.29
O=C(NNC(=O)c1ccc(CNS(=O)(=O)c2ccc(F)c(Cl)c2)cc1)c1ccccc1 | -1.87
CC(C)(O)C(=O)N1CCN(c2ccc(C(F)(F)F)c(C3=C(c4c[nH]c5ccccc45)C(=O)NC3=O)c2)CC1 | -0.35

Series 4
Target: Histone acetyltransferase KAT6A, winged helix 1, GST fusion (KAT6A, Homo sapiens, UniProt Q92794, residues 1-85)
Technique: protein binding microarray
Molecule type: double-stranded DNA, one strand shown
Matrix: in vitro
Tested at: not given
Setting: 8-mer, flanks averaged, mean of 2 arrays, mostly near background
Baseline: not given
Direction: higher = stronger binding
Residues (chain): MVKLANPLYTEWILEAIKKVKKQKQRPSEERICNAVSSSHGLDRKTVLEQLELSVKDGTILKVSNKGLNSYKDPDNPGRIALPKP
Strand | E-score
ACAGATTC | -0.162
ATGGGTAA | -0.0492
AAGCGTCG | 0.303
CCGTGACG | 0.307
ACTCACCG | 0.0943
GGTCCGCA | 0.227
GCGGGCAC | 0.259
AATTTCAT | -0.311

Series 5
Target: RNA binding protein fox-1 homolog 2, RRM domain, GST-SBP tag (RBFOX2, Homo sapiens, UniProt O43251-10, residues 100-194)
Technique: RNA Bind-n-Seq
Molecule type: RNA
Matrix: in vitro
Tested at: 365 nM
Setting: natural RNA segment, single round, ends assumed
Baseline: no-protein control
Direction: higher = stronger binding
All sequences stand within: GGGAGUUCUACAGUCCGACGAUC … UGGAAUUCUCGGGUGCCAA
Construct (chain): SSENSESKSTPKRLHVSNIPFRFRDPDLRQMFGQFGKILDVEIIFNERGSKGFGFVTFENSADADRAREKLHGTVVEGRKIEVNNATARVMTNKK
Strand | RBNS enrichment (R)
UUUCAAGCGCUAUCCACAUCUGACCACAGGCUGGAGAUGUAAGCAGGGAUCUCGGCAGGGAAACAAACCCGAGAGGACACGUGGGAUUUCAGCAAUACUGACUGUGAAGU | 0.248
ACAAACAAAAAAAUGGCGUCAUGAAUAUGAACAGCAUUGUCAGAUGAAUUAGUUGAAGUGGUUUUUUUUUUGUUUUUUUUUUUUUUUUGUACUGUGUCCUCAAAUUUAAU | 0.55
CAGCAGACCUGUGAGCCAGCCAGGGACCGGACUAGAAGCCAUGUUGCAUAUUGGGGUUUUUGUUUGUUUGUUUUUUAAGCACUUACCAAGUGCCCUAUCCCUGGCAGGCC | 1.37
UACUGAAGCAUCAAAGUGUAGUUUAACCUUAAGGUUGGGUUGUAAAUAACACAGUUGGGUGUAGGCAUGGUAAAUCUGAGCAGUCCAUCCUUAGUAUGGUGGAAAGAUUU | 1.28
UGCUGCUGGGUGUGCAGCUGCCACAGACUCCAAAGGCGUAGAAGUUUGUGCCAACACACGGAGUCAUUCUGGCUCUCUGCUGAGGCCCCUGUUUUCUGGCAGGUGCCCUC | 0.558
UGAGUGAGGUGUAGGGAGUCUCCCUCCCCAAGUGGCCAUGUUUACAGAGUGUUGUCUACAAAGUGCAAGUGUGUUAAUGUUUAUGUAAAUUAUGCAGGUGAUAACUUUAU | 1.76
UCUCCCAUCUUUUCUCUCUGUUCUCAGCUCCCCUGUCCCCUCCCUCGGCUCUAGACUUGGGGGAGGGGUUGCCACAGGCCUCCCAGUCUAAAACCCACCUUUGUCUGAGG | 0.635
CAACUUUGGAAAAUAUACAUGAUGUGAAACUGGGGUGCUAUGUUAAAAAUAAAUGUAUGAUAACUAAGUGUGGGUUUUAUGGAGUCUUGGUGUCGAUAUAUUGUGGUUUG | 0.744

Mixed results
Structure (SMILES) | cell line | test | test system | setting | scale | quantity | result
CC[C@H](C)[C@H]1O[C@]2(CC[C@@H]1C)C[C@@H]1C[C@@H](C/C=C(\C)[C@@H](O[C@H]3C[C@H](OC)[C@@H](O[C@H]4C[C@H](OC)[C@@H](O)[C@H](C)O4)[C@H](C)O3)[C@@H](C)/C=C/C=C3\CO[C@@H]4[C@H](O)C(C)=C[C@@H](C(=O)O1)[C@]34O)O2 | HEK-293T-ACE2 |  |  | concentration not given | baseline: vehicle | cell number | 95.5%
CCCCC(=O)N(Cc1ccc(-c2ccccc2-c2nnn[nH]2)cc1)[C@H](C(=O)O)C(C)C | HEK-293T | pseudovirus infection | VSV pseudotyped with SARS-CoV-2 spike | 10 µM, 16 h | baseline: vehicle-treated | GFP-positive cells | 82.5%
